Assay results collected from several papers.
Protocols differ between the studies behind these lines. Numbers after ± are the reported error.
B1: csoR 1-119 (Mycobacterium tuberculosis, UniProt P9WP49); chain MSKELTAKKRAALNRLKTVRGHLDGIVRMLESDAYCVDVMKQISAVQSSLERANRVMLHNHLETCFSTAVLDGHGQAAIEELIDAVKFTPALTGPHARLGGAAVGESATEEPMPDASNM
B2: protein 16-92 (Mycobacterium tuberculosis, UniProt P96276); chain EVADGLTRREHDILAFERQWWKFAGVKEEAIKELFSMSATRYYQVLNALVDRPEALAADPMLVKRLRRLRASRQKAR
B3: protein 16-102 (Mycobacterium tuberculosis, UniProt P96276); chain EVADGLTRREHDILAFERQWWKFAGVKEEAIKELFSMSATRYYQVLNALVDRPEALAADPMLVKRLRRLRASRQKARAARRLGFEVT

| Substance | tested on | test | system | setting | how to read | quantity | value |
| --- | --- | --- | --- | --- | --- | --- | --- |
| FolB (Mycobacterium tuberculosis, UniProt P9WNC5) | Nc1nc2c(c(=O)[nH]1)N=C([C@H](O)[C@@H](O)CO)CN2 | steady-state kinetics |  | pH 7, 25 °C |  | kcat | 0.006 ± 0.0002 s⁻¹ |
| Cn1cnc(Cn2c(=O)[nH]/c(=N\c3cc4cn(C)nc4cc3Cl)n(Cc3cc(F)c(F)cc3F)c2=O)n1 |  |  | human, severe renal impairment | oral, 375 mg, vessel puncture site haemorrhage TEAE, Severe severity |  | patients with adverse event | 0% |
| B1 (csoR 1-119) | itself | native PAGE |  |  |  | subunits per oligomer | 4 |
| Nc1ncnc2c([C@@H]3N[C@H](CO)[C@@H](O)[C@H]3O)c[nH]c12 | Marburg virus | surface glycoprotein expression | HeLa, Musoke | 50 µM, 24 h |  | inhibition | 61.3% |
| CC[C@H](C)[C@H](NC(=O)[C@H](CC(C)C)NC(=O)[C@H](CO)NC(=O)[C@H](Cc1c[nH]cn1)NC(=O)[C@@H](NC(=O)[C@H](CC(C)C)NC(=O)[C@H](CO)NC(=O)[C@@H](NC(=O)[C@H](Cc1ccc(O)cc1)NC(=O)[C@H](CC(N)=O)NC(=O)[C@H](CC(N)=O)NC(=O)[C@@H](NC(=O)[C@H](CCC(=O)O)NC(=O)[C@H](CCCNC(=N)N)NC(=O)[C@H](CC(=O)O)NC(=O)[C@H](Cc1c[nH]c2ccccc12)NC(=O)[C@H](CCC(=O)O)NC(=O)[C@H](CCSC)NC(=O)[C@H](Cc1c[nH]c2ccccc12)NC(C)=O)[C@@H](C)CC)[C@@H](C)O)[C@@H](C)CC)C(=O)N[C@@H](CCC(=O)O)C(=O)N[C@@H](CCC(=O)O)C(=O)N[C@@H](CO)C(=O)N[C@@H](CCC(N)=O)C(=O)N[C@@H](CC(N)=O)C(=O)N[C@@H](CCC(N)=O)C(=O)N[C@@H](CCC(N)=O)C(=O)N[C@@H](CCC(=O)O)C(=O)N[C@@H](CCCCN)C(=O)N[C@@H](CC(N)=O)C(=O)N[C@@H](CCC(=O)O)C(=O)N[C@@H](CCC(N)=O)C(=O)N[C@@H](CCC(=O)O)C(=O)N[C@@H](CC(C)C)C(=O)N[C@@H](CC(C)C)C(=O)NCC(=O)N[C@@H](CO)C(=O)NCC(=O)N[C@@H](CSCC(=O)O[C@H]1CC[C@@]2(C)C(=CC[C@H]3[C@@H]4CC[C@H]([C@H](C)CCCC(C)(C)O)[C@@]4(C)CC[C@@H]32)C1)C(N)=O |  | Trp fluorescence | POPC/cholesterol vesicles | 5 µM, pH 7.4, 25 °C |  | partition coefficient | 516 ± 90 |
| cysH (Mycobacterium tuberculosis, UniProt P9WIK3) | Nc1ncnc2c1ncn2[C@@H]1O[C@H](COP(=O)(O)OS(=O)(=O)O)[C@@H](O)[C@H]1O | steady-state kinetics |  | pH 7.5 |  | Km | 24.3 µM |
| p2o (Trametes ochracea, UniProt Q7ZA32) | Nc1ccc2nc3ccc(N)cc3[s+]c2c1 | steady-state kinetics |  | pH 6.5, 22 °C, apparent |  | Km | 200 µM |
| B2 (protein 16-92) | itself | crystal structure |  |  |  | subunits per oligomer | 2 |
| CC[C@H](C)[C@H](NC(=O)[C@H](CC(C)C)NC(=O)[C@H](Cc1c[nH]c2ccccc12)NC(=O)[C@H](CCC(N)=O)NC(=O)[C@@H](NC(=O)[C@H](Cc1ccccc1)NC(=O)[C@H](C)NC(=O)[C@H](CCCCNC(=O)COCCOCCNC(=O)COCCOCCNC(=O)CC[C@H](NC(=O)CCCCCCCCCCCCCCCCCCC(=O)O)C(=O)O)NC(=O)[C@H](CCC(N)=O)NC(=O)[C@H](C)NC(=O)[C@@H](NC(=O)[C@H](CCCCN)NC(=O)[C@H](CC(=O)O)NC(=O)[C@H](CC(C)C)NC(=O)C(C)(C)NC(=O)[C@@H](NC(=O)[C@H](CO)NC(=O)[C@H](Cc1ccc(O)cc1)NC(=O)[C@H](CC(=O)O)NC(=O)[C@H](CO)NC(=O)[C@@H](NC(=O)[C@H](Cc1ccccc1)NC(=O)[C@@H](NC(=O)CNC(=O)[C@H](CCC(=O)O)NC(=O)C(C)(C)NC(=O)[C@@H](N)Cc1ccc(O)cc1)[C@@H](C)O)[C@@H](C)O)[C@@H](C)CC)[C@@H](C)CC)C(C)C)C(=O)N[C@@H](C)C(=O)NCC(=O)NCC(=O)N1CCC[C@H]1C(=O)N[C@@H](CO)C(=O)N[C@@H](CO)C(=O)NCC(=O)N[C@@H](C)C(=O)N1CCC[C@H]1C(=O)N1CCC[C@H]1C(=O)N1CCC[C@H]1C(=O)N[C@@H](CO)C(N)=O |  | measured: treatment-emergent catheter site bruise | healthy subjects | 0.5 mg, multiple ascending dose |  | subjects with adverse event | 16.7% |
| gag MA matrix protein p17, N-terminal myristoyl (Human immunodeficiency virus type 1, UniProt P12493) |  | NMR, measured: His89 |  | free protein |  | pKa | 6.5 |
| PaFS D92A (Diaporthe amygdali) | CC(C)=CCC/C(C)=C/CC/C(C)=C/CO[P@@](=O)(O)OP(=O)(O)O | steady-state kinetics |  |  |  | kcat | 1.6 ± 0.2 s⁻¹ |
| B3 (protein 16-102) | itself | mass photometry |  |  |  | subunits per oligomer | 2 |
| CNC(=O)[C@@H](NC(=O)[C@H](CC(C)C)[C@H](O)C(=O)NO)C(C)(C)C | Daboia russelii venom proteases (SVMP) | protease activity, inhibitor | GA population | 100 µM, added: azocasein substrate | reference: venom alone | remaining activity | 0% |

Repeated from above:
| Substance | tested on | test | system | setting | how to read | quantity | value |
| --- | --- | --- | --- | --- | --- | --- | --- |
| p2o (Trametes ochracea, UniProt Q7ZA32) | Nc1ccc2nc3ccc(N)cc3[s+]c2c1 | steady-state kinetics |  | pH 6.5, 22 °C, apparent |  | Km | 200 µM |
